# Measurements pooled from the literature.
# Every numbered part comes from another study and shows a few of its results, in no order. Several values in a cell are separate wells, animals, samples, runs or records.
# UniProt O96017, sequence (whole entry, looked up): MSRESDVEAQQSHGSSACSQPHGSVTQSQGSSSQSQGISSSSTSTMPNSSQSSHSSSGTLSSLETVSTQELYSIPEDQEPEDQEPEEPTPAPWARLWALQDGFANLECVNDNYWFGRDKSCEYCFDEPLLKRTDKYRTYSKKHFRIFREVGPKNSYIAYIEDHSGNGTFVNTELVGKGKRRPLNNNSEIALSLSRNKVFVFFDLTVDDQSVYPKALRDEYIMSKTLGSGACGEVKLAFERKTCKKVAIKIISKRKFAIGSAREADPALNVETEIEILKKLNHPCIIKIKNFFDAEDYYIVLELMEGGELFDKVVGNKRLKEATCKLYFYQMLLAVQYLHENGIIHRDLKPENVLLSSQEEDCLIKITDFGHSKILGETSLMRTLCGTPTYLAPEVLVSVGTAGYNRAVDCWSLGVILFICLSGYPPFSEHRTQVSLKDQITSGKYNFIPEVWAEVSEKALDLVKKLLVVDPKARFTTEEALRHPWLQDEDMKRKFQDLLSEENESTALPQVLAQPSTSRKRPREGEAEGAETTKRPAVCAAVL
# UniProt Q9Y2U5, sequence (whole entry, looked up): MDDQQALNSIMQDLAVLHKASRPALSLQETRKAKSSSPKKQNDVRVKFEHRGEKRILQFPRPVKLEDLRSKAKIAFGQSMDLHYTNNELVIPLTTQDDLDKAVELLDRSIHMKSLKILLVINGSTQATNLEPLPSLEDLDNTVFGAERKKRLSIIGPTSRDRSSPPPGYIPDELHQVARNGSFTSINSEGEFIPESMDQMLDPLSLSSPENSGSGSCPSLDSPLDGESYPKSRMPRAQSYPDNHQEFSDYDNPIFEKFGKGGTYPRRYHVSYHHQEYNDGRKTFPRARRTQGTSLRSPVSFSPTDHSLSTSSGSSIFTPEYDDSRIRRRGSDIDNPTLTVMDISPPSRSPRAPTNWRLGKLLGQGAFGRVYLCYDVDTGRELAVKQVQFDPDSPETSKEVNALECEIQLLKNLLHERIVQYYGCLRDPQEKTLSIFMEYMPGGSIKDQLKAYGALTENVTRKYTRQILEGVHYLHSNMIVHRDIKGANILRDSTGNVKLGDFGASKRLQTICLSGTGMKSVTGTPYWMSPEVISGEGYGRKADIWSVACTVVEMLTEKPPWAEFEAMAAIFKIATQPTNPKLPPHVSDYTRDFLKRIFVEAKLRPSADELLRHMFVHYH
# UniProt Q9UK32, sequence (whole entry, looked up): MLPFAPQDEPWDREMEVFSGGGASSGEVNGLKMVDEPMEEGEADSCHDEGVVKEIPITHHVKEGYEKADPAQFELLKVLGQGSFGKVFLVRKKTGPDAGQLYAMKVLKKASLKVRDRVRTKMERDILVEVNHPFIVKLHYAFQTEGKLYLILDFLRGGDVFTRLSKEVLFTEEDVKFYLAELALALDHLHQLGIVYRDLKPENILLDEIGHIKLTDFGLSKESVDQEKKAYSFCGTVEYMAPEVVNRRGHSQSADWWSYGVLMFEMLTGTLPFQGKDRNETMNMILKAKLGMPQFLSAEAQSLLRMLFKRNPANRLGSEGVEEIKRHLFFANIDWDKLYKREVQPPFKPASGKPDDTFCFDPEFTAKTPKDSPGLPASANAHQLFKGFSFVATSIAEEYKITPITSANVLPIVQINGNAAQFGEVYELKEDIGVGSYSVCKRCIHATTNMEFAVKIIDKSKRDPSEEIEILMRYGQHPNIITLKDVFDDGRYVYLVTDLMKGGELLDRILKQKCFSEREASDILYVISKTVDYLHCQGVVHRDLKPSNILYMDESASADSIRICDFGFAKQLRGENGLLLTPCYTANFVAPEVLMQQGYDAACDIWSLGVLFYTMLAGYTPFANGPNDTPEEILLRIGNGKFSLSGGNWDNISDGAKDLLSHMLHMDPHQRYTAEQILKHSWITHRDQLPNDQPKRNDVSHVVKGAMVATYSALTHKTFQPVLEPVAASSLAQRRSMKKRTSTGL
# UniProt Q92772, sequence (whole entry, looked up): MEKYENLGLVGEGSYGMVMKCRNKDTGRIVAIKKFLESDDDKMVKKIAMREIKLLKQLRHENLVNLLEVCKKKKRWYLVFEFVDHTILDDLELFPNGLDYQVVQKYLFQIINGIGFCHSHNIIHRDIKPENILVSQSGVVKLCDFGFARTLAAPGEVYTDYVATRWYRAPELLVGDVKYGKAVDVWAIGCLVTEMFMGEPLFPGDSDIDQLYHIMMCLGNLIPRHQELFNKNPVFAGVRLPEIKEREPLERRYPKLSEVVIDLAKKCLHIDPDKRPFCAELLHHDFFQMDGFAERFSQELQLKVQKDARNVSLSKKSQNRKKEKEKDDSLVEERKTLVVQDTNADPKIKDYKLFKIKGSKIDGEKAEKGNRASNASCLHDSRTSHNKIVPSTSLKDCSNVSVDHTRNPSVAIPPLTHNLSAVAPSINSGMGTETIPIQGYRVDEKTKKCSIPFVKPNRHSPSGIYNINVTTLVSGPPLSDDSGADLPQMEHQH
# UniProt O75582, sequence (whole entry, looked up): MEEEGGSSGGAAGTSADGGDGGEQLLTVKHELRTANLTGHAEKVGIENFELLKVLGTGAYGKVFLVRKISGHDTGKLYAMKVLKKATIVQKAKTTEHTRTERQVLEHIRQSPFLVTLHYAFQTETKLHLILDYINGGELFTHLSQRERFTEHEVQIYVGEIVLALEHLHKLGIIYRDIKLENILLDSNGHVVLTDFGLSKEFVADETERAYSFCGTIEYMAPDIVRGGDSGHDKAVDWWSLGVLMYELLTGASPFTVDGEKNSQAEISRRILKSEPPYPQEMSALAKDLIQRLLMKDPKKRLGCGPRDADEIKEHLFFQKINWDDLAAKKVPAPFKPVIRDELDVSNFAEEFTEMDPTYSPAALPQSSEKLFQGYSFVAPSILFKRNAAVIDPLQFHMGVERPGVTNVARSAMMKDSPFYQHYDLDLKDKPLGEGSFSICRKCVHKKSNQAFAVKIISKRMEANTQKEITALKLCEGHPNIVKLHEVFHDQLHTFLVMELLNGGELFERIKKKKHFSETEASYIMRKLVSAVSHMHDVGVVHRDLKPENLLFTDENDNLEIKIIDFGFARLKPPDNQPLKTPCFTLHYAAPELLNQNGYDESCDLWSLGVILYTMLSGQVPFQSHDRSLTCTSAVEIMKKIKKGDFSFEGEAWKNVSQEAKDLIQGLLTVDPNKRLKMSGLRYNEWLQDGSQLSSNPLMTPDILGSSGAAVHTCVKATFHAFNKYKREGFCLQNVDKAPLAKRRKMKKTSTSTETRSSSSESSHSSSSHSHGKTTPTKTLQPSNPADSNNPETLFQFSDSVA
# UniProt O00444, sequence (whole entry, looked up): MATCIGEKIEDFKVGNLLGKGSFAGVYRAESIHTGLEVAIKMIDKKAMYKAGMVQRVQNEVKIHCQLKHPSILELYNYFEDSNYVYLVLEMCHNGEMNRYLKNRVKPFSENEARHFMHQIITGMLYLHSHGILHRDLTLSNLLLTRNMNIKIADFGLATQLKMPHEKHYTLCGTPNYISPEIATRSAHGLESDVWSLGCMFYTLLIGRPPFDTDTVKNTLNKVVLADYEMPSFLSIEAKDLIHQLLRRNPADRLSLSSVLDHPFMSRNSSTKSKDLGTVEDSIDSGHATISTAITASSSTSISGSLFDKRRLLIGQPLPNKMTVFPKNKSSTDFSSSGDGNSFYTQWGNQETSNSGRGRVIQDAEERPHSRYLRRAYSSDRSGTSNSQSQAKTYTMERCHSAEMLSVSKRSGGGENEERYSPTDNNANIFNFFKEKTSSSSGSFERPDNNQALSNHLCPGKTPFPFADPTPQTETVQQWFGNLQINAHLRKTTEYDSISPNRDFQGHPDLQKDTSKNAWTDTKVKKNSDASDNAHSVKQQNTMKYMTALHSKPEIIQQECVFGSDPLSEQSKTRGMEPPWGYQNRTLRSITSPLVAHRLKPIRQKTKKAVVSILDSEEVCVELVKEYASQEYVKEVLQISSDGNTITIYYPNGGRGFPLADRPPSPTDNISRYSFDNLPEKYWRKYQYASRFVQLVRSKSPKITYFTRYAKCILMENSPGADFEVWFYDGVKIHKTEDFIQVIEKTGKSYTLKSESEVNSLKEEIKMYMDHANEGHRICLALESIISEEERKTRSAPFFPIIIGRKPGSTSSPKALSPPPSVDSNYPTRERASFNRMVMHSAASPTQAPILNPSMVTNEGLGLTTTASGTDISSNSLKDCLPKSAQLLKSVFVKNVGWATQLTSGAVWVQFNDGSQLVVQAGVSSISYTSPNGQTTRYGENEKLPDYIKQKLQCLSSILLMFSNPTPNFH
# UniProt Q16832, sequence (whole entry, looked up): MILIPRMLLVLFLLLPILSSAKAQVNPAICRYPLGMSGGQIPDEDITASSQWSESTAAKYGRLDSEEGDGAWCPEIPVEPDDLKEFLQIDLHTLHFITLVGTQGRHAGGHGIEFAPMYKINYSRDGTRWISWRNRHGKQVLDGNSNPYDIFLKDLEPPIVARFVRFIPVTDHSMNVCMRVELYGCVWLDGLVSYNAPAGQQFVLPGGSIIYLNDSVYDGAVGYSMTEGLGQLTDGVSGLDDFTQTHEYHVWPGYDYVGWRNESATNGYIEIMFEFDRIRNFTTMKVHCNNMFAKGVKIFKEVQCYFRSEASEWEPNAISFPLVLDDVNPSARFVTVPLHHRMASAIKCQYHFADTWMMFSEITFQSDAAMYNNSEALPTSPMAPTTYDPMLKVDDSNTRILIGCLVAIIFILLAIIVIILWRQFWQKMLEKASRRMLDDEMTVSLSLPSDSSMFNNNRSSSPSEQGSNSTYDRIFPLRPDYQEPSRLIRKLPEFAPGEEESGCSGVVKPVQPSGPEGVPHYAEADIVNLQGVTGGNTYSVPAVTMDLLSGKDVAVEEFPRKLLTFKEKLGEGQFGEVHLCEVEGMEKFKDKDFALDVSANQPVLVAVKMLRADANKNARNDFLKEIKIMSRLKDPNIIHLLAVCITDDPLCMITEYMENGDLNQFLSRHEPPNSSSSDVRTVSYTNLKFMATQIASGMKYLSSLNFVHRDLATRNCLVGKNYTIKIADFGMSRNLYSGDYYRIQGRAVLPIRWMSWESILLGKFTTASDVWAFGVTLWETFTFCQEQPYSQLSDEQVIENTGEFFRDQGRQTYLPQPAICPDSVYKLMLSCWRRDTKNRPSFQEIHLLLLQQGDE

# Study 1
# Target: Max-binding protein MNT, bHLH-zipper, MAX partner unstated (MNT, Homo sapiens, UniProt Q99583, residues 220-300)
# Method: protein-binding microarray
# Molecule type: double-stranded DNA, one strand shown
# Sample: in vitro
# Concentration: not given
# Setting: k-mer, scored over probes, only values ≥0.25
# Direction: higher = stronger binding
# Construct (chain): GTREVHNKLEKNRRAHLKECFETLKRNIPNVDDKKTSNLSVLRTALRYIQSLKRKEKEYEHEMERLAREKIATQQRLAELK
Sequence,E-score
ACGAGGGG,0.334
ACGTGGCG,0.444
AAACACGA,0.274
AGCATGGG,0.379
CGTGTTAA,0.325
ATACCATG,0.263
CACGTTGG,0.42
CCTTCACG,0.274

# Study 2
# Cell line: mouse MPNST tumor cells
# Method: high-content nuclear imaging
# Item: cell number
# Concentration: 10 µM
# Time: 12 h
# Setting: mean of 2 replicates
# Baseline: plate mean
# Direction: higher = more cells
Compound,nuclei count
CN(C)c1nc(N(C)C)nc(N(C)C)n1,1.07 z-score and 0.303 z-score
CCCCCCNC(=O)Nc1ccc(S(=O)(=O)Nc2ccc(CCNC[C@H](O)COc3ccc(O)cc3)cc2)cc1,1.52 z-score
NCCNCCNCCNCCN,0.04 z-score

# Study 3
# Organism: Sarcocystis neurona
# Effect on: parasite growth
# Concentration: 10 µM
# Time: 96 h
# Setting: first screen
Structure (SMILES),inhibition
C[C@]12C=CC(=O)C=C1CC[C@@H]1[C@@H]2C(=O)C[C@@]2(C)[C@H]1CC[C@]2(O)C(=O)CO,-18.9%
C=CC1=C(C(=O)O)N2C(=O)[C@@H](NC(=O)/C(=N\OCC(=O)O)c3csc(N)n3)[C@H]2SC1,-14.6%
CCCCc1nc(Cl)c(CO)n1Cc1ccc(-c2ccccc2-c2nn[nH]n2)cc1,-10.4%

# Study 4
# Structure (SMILES): CCC(=O)N[C@@H]1CC[C@H](C(=O)N(C)c2ccc(-c3nc4ccccc4o3)cc2)C1
# Effect on: cell-free assay
# Method: competition with immobilised ligand
# Concentration: 1 µM
target,remaining binding
"Ribosomal protein S6 kinase alpha-6, N-terminal kinase domain (RPS6KA6, Homo sapiens, UniProt Q9UK32)",84%
"EPHA8 (Homo sapiens, UniProt P29322)",100%
"Ribosomal protein S6 kinase alpha-5, N-terminal kinase domain (RPS6KA5, Homo sapiens, UniProt O75582)",75%
"CHEK2 (Homo sapiens, UniProt O96017)",100%
"EGFR (Homo sapiens, UniProt P00533, T790M)",96%
"PLK4 (Homo sapiens, UniProt O00444)",100%
"CDKL2 (Homo sapiens, UniProt Q92772)",100%
"CDK18 (Homo sapiens, UniProt Q07002)",95%
"MAP3K2 (Homo sapiens, UniProt Q9Y2U5)",100%
"Tyrosine-protein kinase ABL1, phosphorylated (ABL1, Homo sapiens, UniProt P00519, H396P)",92%
"DDR2 (Homo sapiens, UniProt Q16832)",92%
"EGFR (Homo sapiens, UniProt P00533, L861Q)",95%
"KIT (Homo sapiens, UniProt P10721, V559D/V654A)",100%
"RPS6KB1 (Homo sapiens, UniProt P23443)",93%

# Mixed results
Compound,target or system,test,test system,conditions,how to read,quantity,value
O=C1CCC(N2Cc3cc(C4CCN(Cc5ccccc5)CC4)ccc3C2=O)C(=O)N1 (centres unmarked),,,"male Sprague-Dawley rat, plasma","oral, 3 mg/kg, 4.98 min",,concentration,3.86 ng/mL
CC(C)n1cnc(-c2ccc(F)cc2)c1-c1ncc(C(=O)Nc2ccc(N3CCN(C)CC3)cc2)[nH]1,,phase 2a clinical trial,patients with idiopathic pulmonary fibrosis,30 mg once daily,,patients with drug eruption TEAE,0%
COc1cc(C(=O)N2CCC(N3CCN(C)CC3)CC2)ccc1Nc1ncc2c(n1)N(C)c1ccccc1C(=O)N2C,MAP2K6 (human),"probe labelling, KiNativ ATP probe",human PBMC lysate,"concentration not given, LYS2 labelled site",,inhibition,-1%
CSc1cccc(NC(=O)N2Cc3c(sc4c3CCCC4)-n3cccc3C2C)c1 (centres unmarked),,,"mouse, microsomes or S9","2 µM, 0.5 h",,remaining compound,14.4%
CO[C@@H]1[C@@H](OC(N)=O)[C@@H](O)[C@H](Oc2ccc3c(O)c(NC(=O)c4ccc(O)c(CC=C(C)C)c4)c(=O)oc3c2C)OC1(C)C,RPE-1 BRCA1-/- PARPi-resistant R4,CellTiter-Glo,,"150 µM, 6 days",,viability,61.1% and 55%
Cc1noc2c(N3CCOCC3)cc(-c3cccs3)nc12,"ADRB1 (Homo sapiens, UniProt P08588)",agonist,,,,EC50,≥ 100 µM
C[C@@](Cc1ccc(O)c(O)c1)(NN)C(=O)O,Plasmodium berghei,inhibitor,"Huh-7, GFP-expressing sporozoites, liver stage","10 µM, 24 h",baseline: untreated control,infection rate,68.8%

# Some of these lines once more (study 3):
Structure (SMILES),inhibition
CCCCc1nc(Cl)c(CO)n1Cc1ccc(-c2ccccc2-c2nn[nH]n2)cc1,-10.4%
C[C@]12C=CC(=O)C=C1CC[C@@H]1[C@@H]2C(=O)C[C@@]2(C)[C@H]1CC[C@]2(O)C(=O)CO,-18.9%
C=CC1=C(C(=O)O)N2C(=O)[C@@H](NC(=O)/C(=N\OCC(=O)O)c3csc(N)n3)[C@H]2SC1,-14.6%
